Results from different studies.
Each line is one published result; not all experiments were run side by side. ≈ marks a conversion by molar mass, not a printed value.
Organism: Candida albicans

CC[C@@H](C)[C@@H](NC(=O)[C@@H](C)NC(=O)[C@@H](CCCCN)NC(=O)[C@@H](CC(C)C)NC(=O)[C@@H](C)NC(=O)[C@H](NC(=O)[C@@H](Cc1c[nH]cn1)NC(=O)[C@@H](CC(C)C)NC(=O)[C@H](NC(=O)[C@H](NC(=O)[C@@H](CCCCN)NC(=O)[C@@H](CCCCN)NC(=O)[C@@H](C)NC(=O)[C@@H](CO)NC(=O)[C@@H](CCCCN)NC(=O)[C@@H](Cc1ccccc1)NC(=O)[C@H](NC(=O)[C@@H](CCCCN)NC(=O)[C@@H](CC(C)C)NC(=O)[C@@H](Cc1ccccc1)NC(=O)[C@@H](CO)NC(=O)[C@@H](CCCCN)NC(=O)[C@@H](Cc1c[nH]c2ccccc12)NC(=O)[C@@H](CCCCN)NC(C)=O)[C@H](C)O)[C@H](C)O)C(C)C)[C@H](C)O)C(=O)N[C@H](CO)C(=O)N[C@H](CO)C(N)=O — MIC50 (ATCC 24433; 48 h, 30 °C): 50 mg/L (≈ 16.7 µM)
CN1CC(=O)N=C1N.C[C@H](CCC(=O)O)[C@H]1CC[C@H]2[C@@H]3[C@@H](O)C[C@@H]4C[C@H](O)CC[C@]4(C)[C@H]3CC[C@]12C — inhibition zone (TISTR 5554; 1 mg per disc, 18 to 24 h, 37 °C, 6 mm disc): inactive
CC[C@H](C)[C@H](NC(=O)[C@@H]1CCCN1C(=O)[C@H](CCCNC(=N)N)NC(=O)[C@H](CC(=O)O)NC(=O)[C@H](CCCCN)NC(=S)Nc1ccc2c(c1)C(=O)OC21c2ccc(O)cc2Oc2cc(O)ccc21)C(=O)N[C@@H](Cc1ccccc1)C(=O)N[C@@H](CCC(N)=O)C(=O)N[C@@H](CC(C)C)C(=O)N[C@@H](CC(N)=O)C(=O)N[C@H](C(=O)N[C@@H](CO)C(=O)N[C@@H](Cc1ccc(O)cc1)C(=O)N[C@@H](Cc1c[nH]c2ccccc12)C(=O)N[C@@H](CCC(=O)O)C(=O)N[C@@H](CCSC)C(=O)NCC(=O)N[C@@H](C)C(=O)O)[C@@H](C)O — duration of growth inhibition (10-fold MIC, 25 °C): 24 h
CC(=O)OC1C(C)C(OC2CC3OCOC3C(C)O2)C=COC2(C)Oc3c(C)c(O)c4c(c3C2=O)C(=O)C=C(NC(=O)C(C)=CC=CC(C(C)OC(=O)C(C)(C)CC(=O)O)C(O)C(C)C(O)C1C)C4=O (centres unmarked) — antifungal activity (ATCC 90028; concentration not given): inactive
CC(C)[C@@H](CC(=O)N[C@@H](CCCCN)CC(N)=O)NC(=O)[C@H]1CCCC[C@@H]1NC(=O)C[C@H](CCCCN)NC(=O)C[C@@H](NC(=O)[C@H]1CCCC[C@@H]1NC(=O)C[C@H](CCCCN)NC(=O)C[C@@H](NC(=O)[C@H]1CCCC[C@@H]1Nc1ccc([N+](=O)[O-])c2nonc12)C(C)C)C(C)C — MIC ratio (SC5314; baseline: NBD-labelled over unlabelled peptide): ≤ 2
CC[C@H](C)[C@H](NC(=O)CNC(=O)[C@H](CC(N)=O)NC(=O)[C@H](CCCNC(=N)N)NC(=O)[C@H](CS)NC(=O)[C@H](CCCNC(=N)N)NC(=O)CNC(=O)CNC(=O)[C@H](CCCCN)NC(=O)[C@H](Cc1ccc(O)cc1)NC(=O)[C@H](CCCNC(=N)N)NC(=O)[C@H](CCCCN)NC(=O)[C@@H](NC(=O)[C@H](CC(C)C)NC(=O)[C@H](CS)NC(=O)[C@H](Cc1c[nH]cn1)NC(=O)[C@H](C)NC(=O)[C@H](C)NC(=O)[C@H](CS)NC(=O)[C@H](C)NC(=O)[C@H](CO)NC(=O)[C@H](Cc1c[nH]cn1)NC(=O)[C@H](CC(N)=O)NC(=O)[C@H](CC(C)C)NC(=O)[C@H](CO)NC(=O)CNC(=O)[C@H](Cc1c[nH]c2ccccc12)NC(=O)[C@@H]1CCCN1C(=O)[C@@H](NC(=O)[C@H](CO)NC(=O)[C@H](C)NC(=O)[C@H](CO)NC(=O)[C@H](CC(C)C)NC(=O)[C@H](CC(C)C)NC(=O)[C@H](CC(=O)O)NC(=O)[C@H](CS)NC(=O)[C@@H](NC(=O)[C@H](C)N)[C@@H](C)O)[C@@H](C)O)[C@@H](C)O)C(=O)N[C@@H](CS)C(=O)N[C@@H](CCCNC(=N)N)C(=O)N[C@@H](CS)C(=O)N[C@@H](CCCNC(=N)N)C(=O)N[C@@H](CCCNC(=N)N)C(N)=O — antifungal concentration (ATCC 90028): > 19 µg/mL
CN1CC(=O)N=C1N.C[C@H](CCC(=O)O)[C@H]1CC[C@H]2[C@@H]3CC[C@@H]4C[C@H](O)CC[C@]4(C)[C@H]3CC[C@]12C — inhibition zone (TISTR 5554; 1 mg per disc, 18 to 24 h, 37 °C, 6 mm disc): inactive
O=[N+]([O-])[O-].S=c1[nH]cnc2[nH]cnc12.[Ag+].c1ccc(P(c2ccccc2)c2ccccc2)cc1.c1ccc(P(c2ccccc2)c2ccccc2)cc1 — inhibition zone diameter (MTCC 227, DMSO; 0.1 mL of 50 mg/mL in 8 mm well, 18 to 24 h): 18 mm
CN1CC(=O)N=C1N.C[C@H](CCC(=O)O)[C@H]1CC[C@H]2[C@@H]3CC[C@@H]4C[C@H](O)CC[C@]4(C)[C@H]3C[C@H](O)[C@]12C — inhibition zone (TISTR 5554; 1 mg per disc, 18 to 24 h, 37 °C, 6 mm disc): inactive
COc1ccc(N2C(=O)C=CC2=O)cc1 — mRNA level (qRT-PCR, refers to: RAS1; 1 µg/mL, 12 h; baseline: untreated): 0.18 fold
CCCCCCCCCCCC(=O)C(C)C(=O)N1CCC[C@H]1C(=O)NC(C)(C)C(=O)NC(C)(C)C(=O)NC(C)(C)C(=O)N[C@](C)(CC)C(=O)NCCC(=O)N[C@@H](C)C(=O)N[C@](C)(CC)C(=O)N[C@@H](C)C(=O)N[C@@H](CC(C)C)C(=O)N[C@](C)(CC)C(=O)NCCC(=O)N[C@@H](C)C(=O)N[C@](C)(CC)C(=O)NCCC(=O)N[C@@H](C)C(=O)NC(C)(C)C(=O)NC(C)(C)C(=O)NC(C)(C)C(=O)N[C@@H](C)C(=O)N[C@@H](CC(=O)O)C(=O)O (some centres unmarked) — cell surface β-1,3-glucan (aniline blue staining; ATCC 90028; 1 µg/mL (½ MIC), 6 h): decreased

Excerpt of the above:
CC[C@H](C)[C@H](NC(=O)[C@@H]1CCCN1C(=O)[C@H](CCCNC(=N)N)NC(=O)[C@H](CC(=O)O)NC(=O)[C@H](CCCCN)NC(=S)Nc1ccc2c(c1)C(=O)OC21c2ccc(O)cc2Oc2cc(O)ccc21)C(=O)N[C@@H](Cc1ccccc1)C(=O)N[C@@H](CCC(N)=O)C(=O)N[C@@H](CC(C)C)C(=O)N[C@@H](CC(N)=O)C(=O)N[C@H](C(=O)N[C@@H](CO)C(=O)N[C@@H](Cc1ccc(O)cc1)C(=O)N[C@@H](Cc1c[nH]c2ccccc12)C(=O)N[C@@H](CCC(=O)O)C(=O)N[C@@H](CCSC)C(=O)NCC(=O)N[C@@H](C)C(=O)O)[C@@H](C)O — duration of growth inhibition (10-fold MIC, 25 °C): 24 h
